Experimental data from different studies.
Several values in a cell are separate wells, animals, samples, runs or records. Numbers after ± are the reported error.
TMPRSS2: Transmembrane protease serine 2 (TMPRSS2, Homo sapiens, UniProt O15393)
AGTR1: Type-1 angiotensin II receptor (AGTR1, Homo sapiens, UniProt P30556)
PTGS2: Prostaglandin G/H synthase 2 (PTGS2, Homo sapiens, UniProt P35354)
FGFR1: Fibroblast growth factor receptor 1 (FGFR1, Homo sapiens, UniProt P11362)
TMPRSS11D: Transmembrane protease serine 11D (TMPRSS11D, Homo sapiens, UniProt O60235)

CC(C)c1ccc(C(=O)Nc2ccc(CN)cc2)c(O)c1 has an inhibition of 92.9% (TMPRSS2; enzyme activity, inhibitor, fluorescence; 10 µM).
C/C(=N/NC(=N)N)c1ccc(/C(C)=N/NC(=N)N)cc1 has an inhibition of 63.8% (Mycosin-1 (Mycolicibacterium thermoresistibile, UniProt G7CDQ2); protease activity, inhibitor, quenched fluorescent peptide; 150 µM, together with: 20 µM fluorogenic peptide substrate; baseline: DMSO control).
The inhibition of CCCCCCCCNc1ccc(C(=O)O)cc1S(=O)(=O)N(C)C is reported as 70.6 ± 9.1% (Solute carrier family 12 member 2 (SLC12A2, Homo sapiens, UniProt P55011); chloride influx; HEK293 transfected with SLC12A2; 100 µM; baseline: DMSO).
With NCc1ccc(NC(=O)c2cc(Br)ccc2O)cc1 the inhibition was under 20% (TMPRSS2; enzyme activity, inhibitor; 10 µM, together with: Boc-QAR-AMC).
CCCCOC(=O)NS(=O)(=O)c1sc(CC(C)C)cc1-c1ccnc(Cn2ccnc2)c1 gave an inhibition of 19% (AGTR1; ligand displacement, radioligand; 10 µM, cell membranes).
With COc1cc2ncc3c(c2cc1-c1cnn(C)c1)n(-c1ccc(C#N)cc1F)c(=O)n3C the inhibition was over 50% (CLK2; kinase activity, inhibitor; 1 µM).
CCOC(=O)NS(=O)(=O)c1sc(CC(C)C)cc1-c1ccc2c(c1)CCN(C(=O)C1CC1)C2 gave an inhibition of 28% (AGTR1; ligand displacement, radioligand; 10 µM, cell membranes).
O=C(CNc1ccc2ccccc2c1)N/N=C/c1cc(Br)c(O)c(Br)c1 gave an inhibition of 98% (Cystic fibrosis transmembrane conductance regulator (CFTR, Homo sapiens, UniProt P13569); apical Cl- current; FRT; 50 µM).
For Cc1ccc(/C=C2\CCCC3C2=NN(C(=O)c2ccncc2)C3c2ccc(C)cc2)cc1 (stereo not drawn), the inhibition was 78.9% (PTGS2; enzyme activity; concentration not given).
With OC(c1cccc(OC(F)(F)F)c1)c1c[nH]c2ncc(C(F)(F)F)cc12 (stereo not drawn) the inhibition was -5% (FGFR1; enzyme activity, inhibitor; 0.1 µM).
CCc1c(-c2c3c(N)n[nH]c(=O)c3nn2-c2ccccc2)oc2ccccc12 gave an inhibition of 0% (FGFR1; enzyme activity, inhibitor, ELISA; 0.1 µM).
The inhibition of CCCCOC(=O)NS(=O)(=O)c1sc(CC(C)C)cc1-c1cccc(CN(Cc2cccs2)C(C)=O)c1 is reported as 30% (AGTR1; ligand displacement, radioligand; 10 µM, cell membranes).
For O=C(NCCCn1ccnc1)OC(Cn1ccnc1)c1ccc(F)cc1 (stereo not drawn), inhibition read “no inhibition” (Sterol 14-alpha demethylase (CYP51, Trypanosoma cruzi, UniProt Q7Z1V1); enzyme activity; concentration not given, together with: eburicol).
Oc1c(C(Nc2nc3ccccc3s2)c2cccc(OCc3ccccc3)c2)ccc2cccnc12 (stereo not drawn) gave an inhibition of 81.8 ± 1.12% (Genome polyprotein, NS2B-NS3 protease (GP1, West Nile virus, UniProt Q9Q6P4); enzyme activity, inhibitor; 10 µM, 0.1% CHAPS, together with: tetrapeptide substrate).
With COc1cccc(Nc2c(C(N)=O)cnc3c(C)cc(-c4ccc5cnn(C)c5c4)cc23)c1 the inhibition was 84% and 83.7% (Class 1 phosphodiesterase PDEB1 (PDEB1, Trypanosoma brucei, UniProt Q8WQX9); enzyme activity, inhibitor; 10 µM).
The inhibition of OC(c1cc(F)ccc1F)c1c[nH]c2ncc(C(F)(F)F)cc12 (stereo not drawn) is reported as 61% (FGFR1; enzyme activity, inhibitor; 1 µM).
CC(C)C1=CC23CCC4C(C)(C(=O)O)CCCC4(C)C2CC1C(C(=O)O)C3C(=O)O (stereo not drawn) — result for inhibition: “inhibited” (Replication protein A 70 kDa DNA-binding subunit, DBD-F (RPA1, Homo sapiens, UniProt P27694); ssDNA binding, EMSA; 300 to 1 µM, protein 2 µM).
For Cc1ccc(O)c(C(=O)Nc2ccc(CN)cc2)c1, the inhibition was under 20% (Plasminogen (PLG, Homo sapiens, UniProt P00747); enzyme activity, inhibitor; 10 µM).
CC(=O)Oc1ccccc1C(=O)[O][Pt]([NH2])([NH2])([Cl])([Cl])[O]C(=O)CCCc1ccccc1 has an inhibition of 6.1% (PTGS2; enzyme activity, COX activity kit; PSN1; 1 µM, 24 h).
The inhibition of NCc1ccc(NC(=O)c2ccc3ccc(Cl)cc3c2O)cc1 is reported as under 20% (TMPRSS11D; enzyme activity, fluorogenic substrate; 10 µM, together with: Boc-VPR-AMC).
With Cc1cc(O)c(C=O)c2c1C(=O)Oc1c(CO)c(O)c3c(c1O2)C(O)OC3=O (stereo not drawn) the inhibition was 73.5% (cGMP-specific 3',5'-cyclic phosphodiesterase (PDE5A, Homo sapiens, UniProt O76074); enzyme activity, inhibitor; 7.5 µg/mL).
CN(C)S(=O)(=O)c1ccc(S(=O)(=O)N2CCC(n3c(=O)[nH]c4ccccc43)CC2)cc1 has an inhibition of 85% (mfd, C-terminal domain (Escherichia coli, UniProt P30958); ATPase activity; concentration not given).
For OC(c1ccc(OCc2ccccc2)cc1)c1c[nH]c2ncc(C(F)(F)F)cc12 (stereo not drawn), the inhibition was 25% (FGFR1; enzyme activity, inhibitor; 1 µM).
Cc1ccc(C(=O)Nc2ccc(CN)cc2)c(O)c1 has an inhibition of 21.2% (TMPRSS11D; enzyme activity, inhibitor, fluorescence; 10 µM).
For FC1(F)Oc2ccc(Cc3c[nH]c4ncc(C(F)(F)F)cc34)cc2O1, the inhibition was 40% (FGFR1; enzyme activity, inhibitor; 1 µM).
COc1cc(C(=O)NC2CCC(N3CCN(CC4CCC5(CCCC5)C4)CC3)CC2)c(F)cc1Nc1ncc2c(n1)N(C1CCCC1(F)F)CC(F)(F)C(=O)N2C (stereo not drawn) gave an inhibition of 0.19% (Epithelial discoidin domain-containing receptor 1 (DDR1, Homo sapiens, UniProt Q08345); cell-free assay, TR-FRET; 10 µM).
COc1ccccc1CNC(=O)CCn1c(=O)[nH]c2ccsc2c1=O: inhibition “no inhibition” (Heat shock protein HSP 90-beta, N-terminal domain (HSP90AB1, Homo sapiens, UniProt P08238); binding, fluorescence polarization; 10 µM, together with: FITC-geldanamycin).
With FC(F)(F)c1ccc(Cc2c[nH]c3ncc(C(F)(F)F)cc23)cc1 the inhibition was 21% (FGFR1; enzyme activity, inhibitor; 1 µM).
Under inhibition, CCS(=O)(=O)c1ccccc1C(=O)N1CCN(c2nc3ccc(F)cc3s2)C[C@@H]1C is recorded as “no effect” (Acid ceramidase (ASAH1, Homo sapiens, UniProt Q13510); enzyme activity, inhibitor; concentration not given).
Cc1ccc(-c2cc(C(=O)Nc3ccc(S(=O)(=O)Nc4ncccn4)cc3)c3ccccc3n2)c(C)c1 has an inhibition of 10.2% (Peptidyl-prolyl cis-trans isomerase A (PPIA, Homo sapiens, UniProt P62937); enzyme activity, inhibitor; 10 µM).
N=C(N)SCc1cccc(CSC(=N)N)c1: inhibition “inactive” (Tryptophan 2,3-dioxygenase (TDO2, Homo sapiens, UniProt P48775); enzyme activity, inhibitor, biochemical; concentration not given).
With N[C@H]1CCCc2c1[nH]c1ccc(Cl)cc21 the inhibition was 89.2% (Sodium-dependent serotonin transporter (SLC6A4, Homo sapiens, UniProt P31645); ligand displacement, radioligand; 10 µM).
For CC(NC(=O)c1ccccc1N)c1ccccc1 (stereo not drawn), inhibition read “no inhibition” (Krev interaction trapped protein 1, FERM domain (KRIT1, Homo sapiens, UniProt O00522); HEG1-KRIT1 FERM interaction, flow cytometry bead; concentration not given).
FC(F)(F)c1cnc2[nH]cc(Cc3ccc(Cl)c(C(F)(F)F)c3)c2c1 gave an inhibition of 7% (FGFR1; enzyme activity, inhibitor; 0.1 µM).
For Cc1cccc(O)c1C(=O)Nc1ccc(CN)cc1, the inhibition was under 20% (TMPRSS2; enzyme activity, inhibitor; 10 µM, together with: Boc-QAR-AMC).
For O=C(O[C@H](CO)C(F)(F)F)N1C[C@@H]2[C@H](C1)[C@H]2c1ccn(-c2ccc(F)nc2)n1, inhibition read “no inhibition” (Fatty-acid amide hydrolase 1 (Faah, Mus musculus, UniProt O08914); ABPP; mouse brain lysate; 0.2 µmol/L).

Repeated from above:
CCc1c(-c2c3c(N)n[nH]c(=O)c3nn2-c2ccccc2)oc2ccccc12 gave an inhibition of 0% (FGFR1; enzyme activity, inhibitor, ELISA; 0.1 µM).
The inhibition of CCCCOC(=O)NS(=O)(=O)c1sc(CC(C)C)cc1-c1cccc(CN(Cc2cccs2)C(C)=O)c1 is reported as 30% (AGTR1; ligand displacement, radioligand; 10 µM, cell membranes).
For O=C(NCCCn1ccnc1)OC(Cn1ccnc1)c1ccc(F)cc1 (stereo not drawn), inhibition read “no inhibition” (Sterol 14-alpha demethylase (CYP51, Trypanosoma cruzi, UniProt Q7Z1V1); enzyme activity; concentration not given, together with: eburicol).
Oc1c(C(Nc2nc3ccccc3s2)c2cccc(OCc3ccccc3)c2)ccc2cccnc12 (stereo not drawn) gave an inhibition of 81.8 ± 1.12% (Genome polyprotein, NS2B-NS3 protease (GP1, West Nile virus, UniProt Q9Q6P4); enzyme activity, inhibitor; 10 µM, 0.1% CHAPS, together with: tetrapeptide substrate).
With COc1cccc(Nc2c(C(N)=O)cnc3c(C)cc(-c4ccc5cnn(C)c5c4)cc23)c1 the inhibition was 84% and 83.7% (Class 1 phosphodiesterase PDEB1 (PDEB1, Trypanosoma brucei, UniProt Q8WQX9); enzyme activity, inhibitor; 10 µM).
